Published values of several laboratories.
Each line is one published result; not all experiments were run side by side.

CCC/C(=C\C1=C(C(F)(F)F)C(=O)c2ccccc2C1=O)C(=O)N(CC)CC has an IC50 of 5.6 µM (NF-κB; reporter gene, inhibitor, luciferase reporter; concentration not given).
For OC1(C(F)(F)F)CCN(c2nc(Nc3ccnc(C(F)(F)F)c3)nc(-c3cccc(C(F)(F)F)n3)n2)C1 (centres unmarked), the IC50 was 4.51 µM (IDH2 R172S, human; 2-HG production, inhibitor; SW1353; 72 h).
For OC(CCCN1CCN(c2ccccn2)CC1)c1ccc(F)cc1 (centres unmarked), the IC50 was 0.6 ng/g (mouse anti-AZN monoclonal antibody; antibody binding, competitor, indirect immunochromatographic; pork extract).
With CCCCC/C=C/C(=O)CCc1ccc(O)c(OC)c1 the IC50 was over 4 µg/mL (mouse mAb 1-G12; antibody binding, indirect competitive ELISA; together with: coating antigen 3-OVA).
With CC1=CC2(C)C(=C(C)C3C4CC(C)CC(C)C4C4Oc5ccc(cc5)CC5(O)NC(=O)C(=C(O)C2C43)C5Nc2ncnc3c2ncn3C2OC(CO)C(O)C2O)C1C (centres unmarked) the IC50 was 15.5 µM (NF-κB; reporter gene, inhibitor; MDA-MB-231 NF-κB luciferase reporter; 2 h, together with: LPS 1 µg/mL).
COc1ccc(C[C@H]2CO[C@H](c3ccc(OC)c(OC)c3)[C@H]2COC(=O)C(C)(C)C)cc1OC has an IC50 of 2.2 µM (NF-κB; reporter gene, inhibitor; HEK293 NF-κB-luc; 4 h, together with: TNFα 2 ng/mL).
COc1cc(CCC(C)=O)ccc1O gave an IC50 of 0.424 µg/mL (mouse mAb 1-G12; antibody binding, indirect competitive ELISA; together with: coating antigen 4-OVA).
The IC50 of COc1cccc(-c2nnc3ccc(N4CCN(C(=O)c5ccc(Br)o5)CC4)nn23)c1 is reported as over 50 µM (rat muscarinic M2-M5 receptors; functional response).
For CCC/C(=C\C1=C(OC)C(=O)c2ccccc2C1=O)C(=O)NOC, the IC50 was 5.9 µM (NF-κB; reporter gene, inhibitor, luciferase reporter; concentration not given).
The IC50 of COc1ccc(C[C@H]2CO[C@H](c3ccc(OC)c(OC)c3)[C@H]2COC(=O)C2CCCCCC2)cc1OC is reported as 1.6 µM (NF-κB; reporter gene, inhibitor; HEK293 NF-κB-luc; 4 h, together with: TNFα 2 ng/mL).
For Cc1ccc(-c2nnc3ccc(N4CCN(C(=O)c5ccc(Br)o5)CC4)nn23)cc1, the IC50 was over 50 µM (rat muscarinic M2-M5 receptors; functional response).

For quick reference, copied from above:
For CCC/C(=C\C1=C(OC)C(=O)c2ccccc2C1=O)C(=O)NOC, the IC50 was 5.9 µM (NF-κB; reporter gene, inhibitor, luciferase reporter; concentration not given).
